# Results from different studies.
# Lines come from different studies, so protocols differ. Values joined by “and” are separate records of one study, mostly repeats; a detail may differ. Numbers after ± are the reported error.
Compound,tested on,test,system,conditions,how to read,quantity,result
Cc1cc(/C=C/C#N)cc(C)c1-n1cnc2cnc(Nc3ccc(C#N)cc3)nc21,HIV-1,"viral replication, single-round infection",RT mutant P236L,,,EC50,0.2 ± 0.04 nM
CC(C)n1ccn2cc(C(=O)NCc3ccc(F)cc3F)c(=O)c(O)c2c1=O,HIV-1,"viral replication, single-round vector infection",IN E138K/Q148K,,,EC50,56.1 ± 8.9 nM
CC[C@H](C)[C@@H]1NC(=O)[C@H](CC(=O)O)NC(=O)[C@H]([C@@H](C)O)NC(=O)[C@@H]2CSSC[C@@H]3NC(=O)[C@H](CC(C)C)NC(=O)[C@H](CC(N)=O)NC(=O)[C@H](CC(C)C)NC(=O)[C@H](CCCNC(=N)N)NC(=O)[C@H](Cc4ccc(O)cc4)NC(=O)[C@H](CCCCN)NC(=O)[C@H](CCSC)NC(=O)[C@H](CO)NC(=O)[C@H]([C@@H](C)O)NC(=O)[C@H](CCCNC(=N)N)NC(=O)[C@H](CSSC[C@H](NC(=O)[C@H]([C@@H](C)O)NC(=O)[C@H](CCCCN)NC(=O)[C@H](CCCNC(=N)N)NC3=O)C(=O)NCC(=O)N[C@@H](CO)C(=O)N[C@H](C(=O)O)CSSC[C@H](NC(=O)[C@@H](NC(=O)[C@@H](N)CCCNC(=N)N)[C@@H](C)O)C(=O)N[C@@H](CCCCN)C(=O)N[C@@H](CC(=O)O)C(=O)N[C@@H](CC(C)C)C(=O)N[C@@H]([C@@H](C)CC)C(=O)N3CCC[C@H]3C(=O)N[C@@H](C(C)C)C(=O)N[C@@H](CO)C(=O)N[C@@H](CCC(=O)O)C(=O)N2)NC(=O)[C@H](CCCNC(=N)N)NC1=O,KcsA-Shaker chimera channel,two-electrode voltage clamp,Xenopus oocytes,"5 nM, 0 mV",,association time constant,126 ± 13 s
N=C(N)NCc1cn([C@@H]2[C@@H](OCCn3cc(COCCOCCOCCn4cc(-c5cc(OCCOCCO)c(C#Cc6cc(OCCOCCO)c(C#Cc7cc(OCCOCCO)c(-c8cn(CCOCCOCCOCc9cn(CCO[C@H]%10O[C@H](CO)[C@@H](O)[C@H](O)[C@@H]%10n%10cc(CNC(=N)N)nn%10)nn9)nn8)cc7OCCOCCO)cc6OCCOCCO)cc5OCCOCCO)nn4)nn3)O[C@H](CO)[C@@H](O)[C@@H]2O)nn1,L-SIGN (human),viral trans-infection,"Jurkat expressing L-SIGN, Severe acute respiratory syndrome coronavirus 2",rVSV-luc pseudovirus,,IC50,65 nM
CC[C@H](C)[C@H](NC(=O)[C@H](CCCCN)NC(=O)[C@H](CCCCN)NC(=O)[C@H](CC(C)C)NC(=O)[C@H](Cc1c[nH]c2ccccc12)NC(=O)CN)C(=O)NCC(=O)N[C@@H](CCCCN)C(=O)N[C@@H](CCCCN)C(=O)N[C@H](C(=O)N[C@@H](CCC(=O)O)C(=O)N[C@@H](CCCNC(=N)N)C(=O)N[C@H](C(=O)NCC(=O)N[C@@H](CCC(N)=O)C(=O)N[C@@H](Cc1c[nH]cn1)C(=O)N[C@H](C(=O)N[C@@H](CCCNC(=N)N)C(=O)N[C@@H](CC(=O)O)C(=O)N[C@@H](C)C(=O)N[C@H](C(=O)N[C@H](C(=O)N[C@@H](CCC(N)=O)C(=O)N[C@H](C(=O)N[C@H](C(=O)NCC(=O)N[C@H](C(=O)N[C@@H](C)C(=O)N[C@@H](CCC(N)=O)C(=O)N[C@@H](CCC(N)=O)C(=O)N[C@@H](C)C(=O)N[C@@H](C)C(=O)N[C@@H](CC(N)=O)C(=O)N[C@H](C(=O)N[C@@H](C)C(=O)N[C@@H](C)C(=O)N[C@H](C(=O)N[C@@H](CC(C)C)C(=O)N[C@@H](CCCCN)C(N)=O)[C@@H](C)O)C(C)C)C(C)C)[C@@H](C)CC)[C@@H](C)O)[C@@H](C)CC)[C@@H](C)O)[C@@H](C)O)C(C)C)[C@@H](C)CC,Escherichia coli,broth microdilution,"D31, CAMHB",,,MIC,4 µg/mL
Nc1ncnc2c1ncn2C1CCC(OC(C(=O)O)P(=O)(O)O)C1 (racemic),HIV-1 reverse transcriptase M184I,"enzyme activity, inhibitor",,"with: poly(rU)·oligo(dA), [3H]dATP",relative to: mutant over wild type,fold resistance,2.8 fold
O=C(NCc1ccc(F)cc1F)c1cn2c(c(O)c1=O)C(=O)N(CCCCCCO)CC2,human immunodeficiency virus 1,single-round vector infection,integrase N155H,,,EC50,35.9 ± 1.1 nM
CCCCCCCCCCCCCCCC(=O)N[C@@H](CCC(=O)NCCOCCOCCC(=O)NCCOCCOCCC(=O)NCCCC[C@H](NC(=O)[C@H](CC(=O)O)NC(=O)[C@H](CC(C)C)NC(=O)[C@H](Cc1ccc(O)cc1)NC(=O)[C@H](CCCCN)NC(=O)[C@H](CO)NC(=O)[C@H](Cc1ccc(O)cc1)NC(=O)[C@H](CC(=O)O)NC(=O)[C@H](CO)NC(=O)[C@@H](NC(=O)[C@H](Cc1ccccc1)NC(=O)[C@@H](NC(=O)CNC(=O)[C@H](CCC(N)=O)NC(=O)[C@@H](CO)NC(=O)[C@@H](N)Cc1c[nH]cn1)[C@@H](C)O)[C@@H](C)O)C(=O)N[C@@H](CCCNC(=N)N)C(=O)N[C@@H](CCCNC(=N)N)C(=O)N[C@@H](C)C(=O)N[C@@H](CCC(N)=O)C(=O)N[C@@H](CC(=O)O)C(=O)N[C@@H](Cc1ccccc1)C(=O)N[C@H](C(=O)N[C@@H](CCC(N)=O)C(=O)N[C@@H](Cc1c[nH]c2ccccc12)C(=O)N[C@@H](CC(C)C)C(=O)N[C@@H](CC(C)C)C(=O)N[C@@H](CC(N)=O)C(=O)N[C@H](C(=O)NCC(=O)NCC(=O)N1CCC[C@H]1C(=O)N[C@@H](CO)C(=O)N[C@@H](CO)C(=O)NCC(=O)N[C@@H](C)C(=O)N1CCC[C@H]1C(=O)N1CCC[C@H]1C(=O)N1CCC[C@H]1C(=O)N[C@@H](CO)C(N)=O)[C@@H](C)O)C(C)C)C(=O)O,,,"Sprague-Dawley rat, male","subcutaneous, 100 µg/kg once daily, 14 days",,total cholesterol,0.61 ± 0.14 mmol/L
CC[C@H](C)[C@H](NC(=O)[C@H](CCCN)NC(=O)[C@H](CC(=O)O)NC(=O)[C@H](CC(C)C)NC(=O)C(C)(CC(C)C)NC(=O)[C@@H](NC(=O)[C@H](CO)NC(=O)[C@H](Cc1ccc(O)cc1)NC(=O)[C@H](CC(=O)O)NC(=O)[C@H](CO)NC(=O)[C@@H](NC(=O)[C@H](Cc1ccccc1)NC(=O)[C@@H](NC(=O)CNC(=O)[C@H](CCC(=O)O)NC(=O)C(C)(C)NC(=O)[C@@H](N)Cc1ccc(O)cc1)[C@@H](C)O)[C@@H](C)CC)[C@@H](C)CC)C(=O)N[C@@H](Cc1c[nH]cn1)C(=O)N[C@@H](CCC(N)=O)C(=O)NC(C)(C)C(=O)N[C@@H](CC(=O)O)C(=O)N[C@@H](Cc1ccccc1)C(=O)N[C@H](C(=O)N[C@@H](CCC(=O)O)C(=O)N[C@@H](Cc1ccc(O)cc1)C(=O)N[C@@H](CCCCNC(=O)COCCOCCNC(=O)COCCOCCNC(=O)CC[C@H](NC(=O)CCCCCCCCCCCCCCCCCCC(=O)O)C(=O)O)C(=O)N[C@@H](CC(C)C)C(=O)N[C@@H](CCC(=O)O)C(=O)NCC(=O)NCC(=O)N1CCC[C@H]1C(=O)N[C@@H](CO)C(=O)N[C@@H](CO)C(=O)NCC(=O)N[C@@H](C)C(=O)N1CCC[C@H]1C(=O)N1CCC[C@H]1C(=O)N1CCC[C@H]1C(=O)N[C@@H](CO)C(N)=O)C(C)C (stereo partly shown),,,healthy human,"subcutaneous, 25 mg single dose, geometric mean",,terminal half-life,288 h
CCCCCCCCCCCCCCCC(=O)N[C@@H](CCC(=O)NCCCC[C@H](NC(=O)[C@H](CC(=O)O)NC(=O)[C@H](CO)NC(=O)[C@@H](NC(=O)[C@H](Cc1ccccc1)NC(=O)[C@@H](NC(=O)CNC(=O)[C@H](CCC(N)=O)NC(=O)[C@H](C)NC(=O)[C@@H](Cc1ccc(O)cc1)NC(C)=O)[C@@H](C)O)[C@@H](C)O)C(=O)N[C@@H](CO)C(=O)N[C@@H](CCCCN)C(=O)N[C@@H](Cc1ccc(O)cc1)C(=O)N[C@@H](CC(C)C)C(=O)N[C@@H](CC(=O)O)C(=O)N[C@@H](CCC(=O)O)C(=O)N[C@@H](CCCNC(=N)N)C(=O)N[C@@H](C)C(=O)N[C@@H](C)C(=O)N[C@@H](CCC(N)=O)C(=O)N[C@@H](CC(=O)O)C(=O)N[C@@H](Cc1ccccc1)C(=O)N[C@H](C(=O)N[C@@H](CCC(N)=O)C(=O)N[C@@H](Cc1c[nH]c2ccccc12)C(=O)N[C@@H](CC(C)C)C(=O)N[C@@H](CC(C)C)C(=O)N[C@@H](CCC(=O)O)C(=O)NCC(=O)NCC(=O)N1CCC[C@H]1C(=O)N[C@@H](CO)C(=O)N[C@@H](CO)C(=O)NCC(=O)N[C@@H](C)C(=O)N1CCC[C@H]1C(=O)N1CCC[C@H]1C(=O)N1CCC[C@H]1C(=O)N[C@@H](CO)C(N)=O)C(C)C)C(=O)O,,,"Wistar rat, male","subcutaneous, 0.02 mg/kg",,Tmax,2 to 4 h
Cc1ccc(NS(=O)(=O)c2c(C(=O)N3CCCCCC3)c(C)n(C)c2C)c(Cl)c1,Monkeypox virus,qPCR,"Vero C1008, wild type","20 µM, 72 h",relative to: untreated,relative infection,19.7% and 21.8% and 15%
Cc1cc(/C=C/C#N)cc(C)c1Nc1nc(Nc2ccc(C#N)cc2)ncc1N,HIV-1,"viral replication, single-round infection",RT mutant K101P,,,EC50,9 ± 2.3 nM
CC(C)C[C@@H]1NC(=O)[C@H](CCCNC(=N)N)NC(=O)[C@@H]2CCCN2C(=O)[C@@H]2CSSC[C@H](NC(=O)CNC(=O)[C@@H]3CCCN3C(=O)[C@H](CCCCN)NC(=O)[C@H](CC(=O)O)NC(=O)[C@@H](NC(=O)CN)C(C)C)C(=O)N[C@@H](CCCNC(=N)N)C(=O)N[C@@H](Cc3ccc(O)cc3)C(=O)N[C@@H](CC(C)C)C(=O)N[C@@H](Cc3ccccc3)C(=O)NCC(=O)NCC(=O)N[C@H]3CSSC[C@H](NC(=O)CNC1=O)C(=O)N[C@@H](CCCCN)C(=O)NCC(=O)N[C@@H](CCCCN)C(=O)NCC(=O)N[C@@H](Cc1c[nH]cn1)C(=O)N[C@@H](CC(=O)O)C(=O)N[C@@H](Cc1ccc(O)cc1)C(=O)N[C@H](C(=O)N[C@@H](C)C(=O)N[C@@H](Cc1c[nH]c4ccccc14)C(=O)N[C@@H](CC(=O)O)C(=O)NCC(=O)N[C@H](C(=O)N[C@@H](Cc1ccccc1)C(=O)N[C@@H](CO)C(=O)N[C@@H](CC(=O)O)C(=O)O)[C@@H](C)O)CSSC[C@H](NC(=O)[C@H](CC(=O)O)NC(=O)[C@H](CC(=O)O)NC(=O)[C@H](CC(=O)O)NC(=O)[C@H](CO)NC(=O)[C@H](CCCCN)NC3=O)C(=O)N2,"Sodium channel protein type 1 subunit alpha (SCN1A, Homo sapiens, UniProt P35498)","sodium current, automated patch clamp",HEK293,"1 µM, 50 ms depolarizing pulse",relative to: compound over control,inactivation time constant ratio,3.51 ± 0.26
